Values quoted from earlier work, collected from citations in different studies.

SMILES = Cc1cnc(N2CC3(CCOCC3)C2)c(C(=O)Nc2ccc(C(=O)N3CCc4cc(C(=O)Nc5c(C)cccc5F)sc4-c4ccccc43)cc2)c1; tested on = respiratory syncytial virus; test = cytopathic effect; test system = A2; quantity = IC50; value = 0.000354 µg/mL
SMILES = CNC(C)C1CCC(N)C(OC2C(N)CC(N)C(OC3OCC(C)(O)C(NC)C3O)C2O)O1 (stereo not shown); tested on = Pseudomonas aeruginosa; test system = clinical isolate RKI-No_21/11; quantity = MIC; value = > 8 µg/mL
SMILES = CC(C)CN(C[C@@H](O)[C@H](Cc1ccccc1)NC(=O)O[C@H]1CO[C@H]2OCC[C@H]21)S(=O)(=O)c1ccc(C(=O)O)cc1; tested on = HIV-1; test = viral replication, inhibitor; test system = MT-2, LAI; quantity = IC50; value = > 1000 nM
SMILES = Nc1cc(C(F)(F)F)c(-c2nc(N3CCOCC3)nc(N3CCOCC3)n2)cn1; tested on = STK39 (Homo sapiens, UniProt Q9UEW8); test = enzyme activity; setting = 10 µM; scale = relative to: untreated; quantity = remaining activity; value = 100%
SMILES = CC1(C)S[C@@H]2[C@H](NC(=O)[C@H](N)c3ccccc3)C(=O)N2[C@H]1C(=O)O; tested on = Pseudomonas aeruginosa; test system = clinical isolate RKI-No_21/11; quantity = MIC; value = > 16 µg/mL
SMILES = O=C(Nc1ccc(Cl)c(Cl)c1)Nc1ccc(Cl)c(Cl)c1; tested on = Schistosoma mansoni; setting = ex vivo worms; quantity = IC50; value = 800 nM
SMILES = Cc1ccc2[nH]c3ccccc3c(=O)c2c1; tested on = Plasmodium falciparum; test = whole cell extended time; test system = 3D7; setting = 72 h; quantity = IC50; value = 860 nM
SMILES = Nc1[nH]c(=O)ncc1F; tested on = Candida albicans; quantity = IC50; value = 930 nM
SMILES = Cc1ccc(/C=C2/SC(=Nc3ccccc3)NC2=O)c(C)c1; tested on = Plasmodium falciparum; test = whole cell extended time; test system = 3D7; setting = 72 h; quantity = IC50; value = 560 nM
SMILES = C[C@H]1COCCN1c1nc(-c2cnc(N)cc2C(F)F)nc(N2CCOCC2)n1; tested on = Hs-578T; quantity = GI50; value = 354 nM
SMILES = O=c1c(O)c(-c2ccc(O)c(O)c2)oc2cc(O)cc(O)c12; tested on = CMV; test = viral replication; quantity = IC50; value = 19600 nM
SMILES = Cc1cc(=O)c(-c2ccc(Oc3ccc(Cl)cc3Cl)cc2)c(C)[nH]1; tested on = Plasmodium falciparum; test = whole cell extended time; test system = 3D7; setting = 72 h; quantity = IC50; value = 840 nM
SMILES = N/C(CC(O)c1cc2c(F)cc(F)cc2c2cc(C(F)(F)F)ccc12)=N\c1ccc(F)cc1 (stereo not shown); tested on = Plasmodium falciparum; test = parasite growth; test system = NF54; quantity = IC50; value = 12 nM

A few entries again:
SMILES = Cc1cc(=O)c(-c2ccc(Oc3ccc(Cl)cc3Cl)cc2)c(C)[nH]1; tested on = Plasmodium falciparum; test = whole cell extended time; test system = 3D7; setting = 72 h; quantity = IC50; value = 840 nM
